Published values pooled from the literature.
A part holds a random share of what one study measured.

Study 1 — technique: aptamer microarray, sandwich; form: DNA with 2'F-ANA; matrix: in vitro; tested at: 200 nM; added: Cy3 exosite-II aptamer, 400 nM; reading: higher = stronger binding; strand: GGTTGGTGTGGTTGG
Target: Prothrombin, mature alpha-thrombin (F2, Homo sapiens, UniProt P00734)
Notes: whole 15-mer aptamer, many near background
`2'F-ANA at 5 7 8 9 10 12 13` — result for “mean fluorescence intensity”: 49.6 a.u.
For `2'F-ANA at 2 3 6 8 9 10 11 13 15`, “mean fluorescence intensity” read 244 a.u.
`2'F-ANA at 3 6 8 9 14 15` — result for “mean fluorescence intensity”: 534 a.u.
For `2'F-ANA at 1 3 4 5 9 11 12`, “mean fluorescence intensity” read 101 a.u.
`2'F-ANA at 2 3 4 5 6 7 9 10 11 12 13 15`: “mean fluorescence intensity” 65.3 a.u.
For `2'F-ANA at 1 2 4 7 10 11 12 13 14`, “mean fluorescence intensity” read 103 a.u.
For `2'F-ANA at 1 4 5 8 9 10 11 12 13 15`, “mean fluorescence intensity” read 43.2 a.u.
Under “mean fluorescence intensity”, `2'F-ANA at 1 2 4 5 6 7 8 10 11 12 15` is recorded as 50.9 a.u.
For `2'F-ANA at 2 3 4 6 7 9 11 13`, “mean fluorescence intensity” read 301 a.u.
`2'F-ANA at 1 4 6 7 8 9 11 13 14` — result for “mean fluorescence intensity”: 51 a.u.
For `2'F-ANA at 2 3 6 7 10 11 15`, “mean fluorescence intensity” read 304 a.u.
`2'F-ANA at 3 5 8 9 14`: “mean fluorescence intensity” 112 a.u.
For `2'F-ANA at 1 2 3 5 6 7 9 13 14`, “mean fluorescence intensity” read 50.3 a.u.
`2'F-ANA at 1 3 5 6 7 11 13 14` — result for “mean fluorescence intensity”: 49.3 a.u.
`2'F-ANA at 3 4 5 6 8 9 11 13`: “mean fluorescence intensity” 117 a.u.
Under “mean fluorescence intensity”, `2'F-ANA at 1 2 6 9 10 13 14 15` is recorded as 50.9 a.u.
Under “mean fluorescence intensity”, `2'F-ANA at 3 4 7 11 12 13` is recorded as 708 a.u.
For `2'F-ANA at 3 5 8 9 11 13`, “mean fluorescence intensity” read 113 a.u.

Study 2 — technique: RNA Bind-n-Seq; form: RNA; matrix: in vitro; tested at: 365 nM; baseline: no-protein control; reading: higher = stronger binding
Target: RNA binding protein fox-1 homolog 2, RRM domain, GST-SBP tag (RBFOX2, Homo sapiens, UniProt O43251-10, residues 100-194)
Notes: natural RNA segment, single round, ends assumed
Constant ends, left off below: GGGAGUUCUACAGUCCGACGAUC … UGGAAUUCUCGGGUGCCAA
Residues (chain): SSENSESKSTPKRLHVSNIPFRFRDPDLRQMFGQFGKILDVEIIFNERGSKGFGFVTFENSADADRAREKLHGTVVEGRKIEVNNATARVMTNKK
`UGUUCACUUUUGUAAUAUUGUCCUGGGCCUGUGUUGGGGUGUUGGGGGAAGCUGGGCAUCAGUGGCCACAUGGGCAUCAGGGGCUGGCCCCACAGAGACCCCACAGGGCA` — result for “RBNS enrichment (R)”: 0.487.
For `UAAACCUGUGAUAAGAUGUCUGCAAUAGACUCAGCCUUCUGUGACUAACUCCUAACUAACCAGCUCGCAGUGCGCUGCAGCCUUCCUUUUACCUUCAGCUGUCUCAGGAA`, “RBNS enrichment (R)” read 0.63.
`AAGGGAUGUCAGCUAGAGUGUAGAGCCAGGGAGAGACAGCCAGGGAUUCUCGCCUAGCUGAACCAAGAUGUAAAAUAGGAGAAAUGCUCCCUCCAUAGCCAAUCUGCAUC`: “RBNS enrichment (R)” 0.784.
`UUUUAAAGUUGGGCUUUUUAAUUACUUUACAAAUACCCAUGAGUGGGACAGAUGUUCUGAACCUGGACCACAGGCCUUCCUGCUAGGCUUGCAGCCCACGGUGCACAUCU` — result for “RBNS enrichment (R)”: 0.203.
For `UGACCAUGCUCUGGGGACAGGGGUACCUUAGAUUCUCUGUCUAUUUUUCCUCUAGCAAGCCAGCUGUGCUGAAGCCCAGUAGAGAUGAAGAGACACCAGCCAGAGAAAAC`, “RBNS enrichment (R)” read 0.453.
`CAGCAGAUGCUGGGGUAUGGCCUCAAGACCUUCCCUCUCUCCUGAAGAUGUCUCAACCCUACAAAGACUAAAGUGCGCCAUCCCAGUGCCACAGAAGGCAGAGGGUAGUU` — result for “RBNS enrichment (R)”: 0.193.
Under “RBNS enrichment (R)”, `UAUCUCUAAUACUUGGCAACAUAAGGUGCUUGCAAACACUAAGGCUGCCCCCUGCAAAGUAAACUCCAAGACAAACCAAACCCAAGGUACAAAUGUGUUACACAUAAAUG` is recorded as 0.278.
`CGCGGUCACUCCCUCUCCUAGUGAGAGGCAGAUGGCUGGCUCUGAAGGGAGGCAGGCACCGUGGGAUUUGGGCUUGCUCUGCUUGGUCCCCAUGUGAUGCCCUGUGCUGU`: “RBNS enrichment (R)” 0.354.

Study 3 — technique: universal PBM; form: double-stranded DNA, one strand shown; matrix: in vitro; tested at: not given; reading: higher = stronger binding
Target: Sal-like protein 4, full length isoform B (SALL4, Homo sapiens, UniProt Q9UJQ4-2, residues 1-616)
Notes: 8-mer, flanks averaged, mean of replicates
The E-score of `AGCGGGGC` is reported as -0.355.
For `GTATAGAA`, the E-score was 0.157.
`CACATCTA` has an E-score of 0.18.
The E-score of `GATAAGAC` is reported as 0.126.
The E-score of `GCGTGGAA` is reported as -0.0819.
For `GACAATGA`, the E-score was -0.0235.
The E-score of `GCACTAAA` is reported as 0.148.
`CCAATCTC` has an E-score of 0.103.
The E-score of `GAAATGCC` is reported as -0.0952.
`ATAGGCAG` has an E-score of 0.287.
With `TGTCAACA` the E-score was 0.122.
`AATTCCCA` gave an E-score of 0.164.
`AGCCGGCT` has an E-score of -0.24.
For `ACGCCATC`, the E-score was -0.205.
The E-score of `CCTCACAA` is reported as -0.0466.
For `ATAGCAGG`, the E-score was -0.0191.
`ACCGTACC` gave an E-score of -0.252.
`CTAGCGCC` has an E-score of -0.238.
The E-score of `GTTTAGAA` is reported as 0.184.
`GACCATCA` gave an E-score of -0.0284.
With `TGCAAGCA` the E-score was 0.0594.
`GAATCAGC` has an E-score of -0.243.
`GCTGCGTA` has an E-score of -0.157.

Study 4 — technique: RNA Bind-n-Seq; form: RNA; matrix: in vitro; tested at: not given; notes: RNA with constant flanks, ends assumed; baseline: input RNA pool; reading: higher = stronger binding
Target: RING finger protein unkempt homolog, zinc fingers 1-6, GST-SBP tag (UNK, Homo sapiens, UniProt Q9C0B0, residues 30-357)
Sequence of UniProt Q9C0B0 (30-357, looked up): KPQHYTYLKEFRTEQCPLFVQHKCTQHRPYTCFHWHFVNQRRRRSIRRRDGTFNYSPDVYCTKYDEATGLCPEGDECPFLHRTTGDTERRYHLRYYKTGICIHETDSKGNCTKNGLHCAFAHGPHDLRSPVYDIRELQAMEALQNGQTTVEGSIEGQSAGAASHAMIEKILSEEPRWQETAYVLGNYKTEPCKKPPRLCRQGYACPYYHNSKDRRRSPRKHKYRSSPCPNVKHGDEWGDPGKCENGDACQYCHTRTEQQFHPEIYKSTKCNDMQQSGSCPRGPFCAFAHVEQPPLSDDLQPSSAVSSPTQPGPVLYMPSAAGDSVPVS
Constant ends, left off below: GGGAGUUCUACAGUCCGACGAUC … CAACAGAGGAUUGAGCAUCA
`CAGCUGCUUACACAGGAUGUAGAAAAAUUUUGUAACAGUGUAGUCGAUCUGUAUUCAAAUCUCCGUAAGCCAUUUUUAGACAUAGUUUUAUAUAUUUUCAAGUUAACAAGUGCAAUUGGA` gave a bound/input enrichment of 114 ratio.
`UGCCUCUAAGGCUGGGCUCUGCCUCAGAGGAGUUUAUUUUCUUUUUUUCUAUAAAGUUUAAACCGUCUUUUGAGUGAAUUUUCUGGUCAUUGCCUAUACAAAUAAAUGUAAGAAAUCUGG` has a bound/input enrichment of 0.332 ratio.
The bound/input enrichment of `GAAAAGUUAGAACCUUGCUGUUAAUCUCAUCUGCUGUGUGUGAAGAUCAAUCAGUGGUCCCUCCGAUUCUUCCCUGCUAACCAAGGAAACAGGGUCGGCCUUGAUAAAUCAAGGGAGUUG` is reported as 0.28 ratio.
For `GGUAUUUUCCAGUGAAGACUAUCGCCAAGAAUGCAUAUCAUUCUGCUUAUUUUAUUCCCGUGGAUAAAAAUUCAACGUAUAUUUAAGUGUAUUUUUGACAUCUGUGCUUGUCCAACACAG`, the bound/input enrichment was 0.212 ratio.
With `CCCUGUUUAUUGGCUGGAGGUUUAUUAACAUAUAAGUCUCCUGCUACCUCACCCAUCCGCCGUAAUUCUCACAGGUCACUGGAUGGUUUAAGCAGAACUCAGGGCGAAAGUAUAUCAGAA` the bound/input enrichment was 0.12 ratio.
`AAAAUUGUCCGAUGCCAUGAACACAUAGAAAUCCUUACAGUAAAUGGAGAAUUACUGUUUUUCCGACAAAGAGAAGGGCCUUUUUAUCCAACUUUAAGAUUACUUCAUAAAUAUCCUUUU` gave a bound/input enrichment of 0.427 ratio.
`CUGAUUUGUUUUGUGAUUUUUAACUUAUGAGGCAAGAAAGGUCUUCCUUCAAUAUUGUCUCUCCGGGAAUCUCUCUCUCAGUGUUUGAACUUAACUUGUGCUUGAAAUUCUACAGUUUCA` has a bound/input enrichment of 0.107 ratio.
`CCAGGAAGAAAGUGAAUCCUGAGACCAGACAGAAAGGCCAGGUUCUGGGAGAAGUAGACCCCGUUGGCAUAGUGAGGCUCACAGAAAACAGGAAGCCCUUUGUUCCGGAGAACAGCCCAG` gave a bound/input enrichment of 0.225 ratio.

Repeated from above (study 3):
`GAATCAGC` has an E-score of -0.243.
`GACCATCA` gave an E-score of -0.0284.
`AGCCGGCT` has an E-score of -0.24.
With `TGCAAGCA` the E-score was 0.0594.
For `ATAGCAGG`, the E-score was -0.0191.
`CTAGCGCC` has an E-score of -0.238.
